Results of several laboratories.
Numbered parts are unrelated; each lists some results of a single study. Substitutions count along the parent as printed.
UniProt P21709, sequence (whole entry, looked up): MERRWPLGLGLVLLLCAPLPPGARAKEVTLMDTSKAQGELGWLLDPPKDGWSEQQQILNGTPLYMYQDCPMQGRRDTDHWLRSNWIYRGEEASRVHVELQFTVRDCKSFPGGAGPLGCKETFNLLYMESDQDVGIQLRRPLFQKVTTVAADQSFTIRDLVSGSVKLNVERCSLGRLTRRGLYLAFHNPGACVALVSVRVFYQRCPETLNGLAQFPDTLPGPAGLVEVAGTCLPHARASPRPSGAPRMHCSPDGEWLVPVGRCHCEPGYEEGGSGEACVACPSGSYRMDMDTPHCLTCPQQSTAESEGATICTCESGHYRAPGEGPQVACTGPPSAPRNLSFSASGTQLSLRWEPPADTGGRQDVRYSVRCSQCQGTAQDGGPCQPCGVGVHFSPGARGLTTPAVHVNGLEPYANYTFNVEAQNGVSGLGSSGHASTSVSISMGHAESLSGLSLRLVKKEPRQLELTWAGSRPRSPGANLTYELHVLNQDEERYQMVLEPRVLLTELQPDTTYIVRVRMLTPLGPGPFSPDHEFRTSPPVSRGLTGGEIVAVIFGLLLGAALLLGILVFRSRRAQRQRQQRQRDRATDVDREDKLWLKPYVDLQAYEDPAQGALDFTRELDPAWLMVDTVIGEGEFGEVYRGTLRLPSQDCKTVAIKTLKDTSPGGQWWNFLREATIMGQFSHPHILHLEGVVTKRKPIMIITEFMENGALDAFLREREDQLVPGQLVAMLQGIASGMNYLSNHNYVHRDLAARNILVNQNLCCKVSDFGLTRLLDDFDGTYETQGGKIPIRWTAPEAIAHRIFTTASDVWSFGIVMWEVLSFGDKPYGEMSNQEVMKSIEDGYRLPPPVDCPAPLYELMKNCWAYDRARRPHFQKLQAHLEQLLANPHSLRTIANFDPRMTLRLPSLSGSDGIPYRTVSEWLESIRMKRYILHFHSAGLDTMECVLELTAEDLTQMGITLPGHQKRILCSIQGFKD
UniProt P23458, sequence (whole entry, looked up): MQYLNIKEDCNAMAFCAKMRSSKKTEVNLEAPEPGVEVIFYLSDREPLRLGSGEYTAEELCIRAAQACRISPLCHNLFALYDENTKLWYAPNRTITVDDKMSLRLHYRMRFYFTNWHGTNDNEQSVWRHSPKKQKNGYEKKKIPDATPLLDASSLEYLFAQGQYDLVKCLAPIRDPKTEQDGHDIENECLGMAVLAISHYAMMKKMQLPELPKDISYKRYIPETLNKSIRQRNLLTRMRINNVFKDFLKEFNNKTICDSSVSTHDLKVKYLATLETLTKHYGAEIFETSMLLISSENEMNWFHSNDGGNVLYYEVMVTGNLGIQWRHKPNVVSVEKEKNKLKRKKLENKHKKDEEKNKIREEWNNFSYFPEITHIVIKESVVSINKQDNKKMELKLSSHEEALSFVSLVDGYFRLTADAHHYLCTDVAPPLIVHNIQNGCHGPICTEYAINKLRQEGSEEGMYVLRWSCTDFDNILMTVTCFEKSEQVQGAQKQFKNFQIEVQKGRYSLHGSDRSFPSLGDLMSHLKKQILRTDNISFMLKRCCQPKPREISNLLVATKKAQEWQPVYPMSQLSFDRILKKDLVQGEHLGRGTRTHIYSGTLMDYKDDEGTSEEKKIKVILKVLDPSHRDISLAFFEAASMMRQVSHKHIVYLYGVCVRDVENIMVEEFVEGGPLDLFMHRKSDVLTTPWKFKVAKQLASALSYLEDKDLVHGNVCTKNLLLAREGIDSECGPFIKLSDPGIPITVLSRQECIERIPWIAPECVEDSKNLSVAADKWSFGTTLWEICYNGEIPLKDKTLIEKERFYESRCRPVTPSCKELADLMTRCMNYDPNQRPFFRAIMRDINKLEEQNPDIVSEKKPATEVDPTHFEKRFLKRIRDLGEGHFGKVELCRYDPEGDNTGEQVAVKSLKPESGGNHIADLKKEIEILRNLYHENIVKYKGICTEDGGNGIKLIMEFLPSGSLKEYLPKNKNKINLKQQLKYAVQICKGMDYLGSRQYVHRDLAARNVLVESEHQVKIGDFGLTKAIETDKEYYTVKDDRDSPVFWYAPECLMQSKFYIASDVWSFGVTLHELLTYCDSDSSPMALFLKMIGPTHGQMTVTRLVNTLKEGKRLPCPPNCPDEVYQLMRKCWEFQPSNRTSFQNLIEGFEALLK
UniProt Q13555, sequence (whole entry, looked up): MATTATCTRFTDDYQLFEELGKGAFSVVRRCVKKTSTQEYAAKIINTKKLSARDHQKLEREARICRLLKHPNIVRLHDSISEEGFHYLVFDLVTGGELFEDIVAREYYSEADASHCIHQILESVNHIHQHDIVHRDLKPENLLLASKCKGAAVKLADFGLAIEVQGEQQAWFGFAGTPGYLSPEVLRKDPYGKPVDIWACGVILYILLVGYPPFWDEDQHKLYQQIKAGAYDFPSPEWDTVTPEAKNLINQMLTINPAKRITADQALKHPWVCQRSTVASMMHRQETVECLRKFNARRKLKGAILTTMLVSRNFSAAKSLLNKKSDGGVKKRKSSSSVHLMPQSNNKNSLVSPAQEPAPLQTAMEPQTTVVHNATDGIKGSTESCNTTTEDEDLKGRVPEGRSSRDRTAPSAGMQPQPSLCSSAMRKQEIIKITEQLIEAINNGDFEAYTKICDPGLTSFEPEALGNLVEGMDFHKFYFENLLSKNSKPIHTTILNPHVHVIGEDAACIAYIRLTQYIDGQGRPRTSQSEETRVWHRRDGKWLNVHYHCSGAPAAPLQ
UniProt P07333, sequence (whole entry, looked up): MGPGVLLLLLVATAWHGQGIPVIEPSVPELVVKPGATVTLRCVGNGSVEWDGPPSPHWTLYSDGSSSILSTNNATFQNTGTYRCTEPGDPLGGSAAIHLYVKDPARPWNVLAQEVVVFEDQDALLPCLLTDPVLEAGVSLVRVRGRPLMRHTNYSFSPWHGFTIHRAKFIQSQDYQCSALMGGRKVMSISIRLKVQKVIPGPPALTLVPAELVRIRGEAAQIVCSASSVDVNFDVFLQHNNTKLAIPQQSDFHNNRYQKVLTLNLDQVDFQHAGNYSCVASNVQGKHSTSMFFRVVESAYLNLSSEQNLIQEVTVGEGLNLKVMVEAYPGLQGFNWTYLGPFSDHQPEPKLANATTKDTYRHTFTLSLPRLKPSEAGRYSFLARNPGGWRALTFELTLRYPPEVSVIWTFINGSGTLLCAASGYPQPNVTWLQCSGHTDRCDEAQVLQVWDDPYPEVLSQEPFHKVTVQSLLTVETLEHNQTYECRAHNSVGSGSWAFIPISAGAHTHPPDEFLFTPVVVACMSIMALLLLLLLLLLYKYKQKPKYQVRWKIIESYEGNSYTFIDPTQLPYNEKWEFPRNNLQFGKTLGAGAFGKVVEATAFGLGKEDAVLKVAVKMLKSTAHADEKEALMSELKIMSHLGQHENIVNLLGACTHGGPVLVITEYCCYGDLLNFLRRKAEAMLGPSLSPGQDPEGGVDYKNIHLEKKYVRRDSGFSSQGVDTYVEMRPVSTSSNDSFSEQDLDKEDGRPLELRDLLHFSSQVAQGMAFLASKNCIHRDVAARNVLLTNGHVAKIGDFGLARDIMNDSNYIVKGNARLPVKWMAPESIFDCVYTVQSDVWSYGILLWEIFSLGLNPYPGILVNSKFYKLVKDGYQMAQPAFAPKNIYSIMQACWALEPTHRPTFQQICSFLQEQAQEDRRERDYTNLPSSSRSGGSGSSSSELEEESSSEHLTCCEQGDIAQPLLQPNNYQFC
UniProt Q16659, sequence (whole entry, looked up): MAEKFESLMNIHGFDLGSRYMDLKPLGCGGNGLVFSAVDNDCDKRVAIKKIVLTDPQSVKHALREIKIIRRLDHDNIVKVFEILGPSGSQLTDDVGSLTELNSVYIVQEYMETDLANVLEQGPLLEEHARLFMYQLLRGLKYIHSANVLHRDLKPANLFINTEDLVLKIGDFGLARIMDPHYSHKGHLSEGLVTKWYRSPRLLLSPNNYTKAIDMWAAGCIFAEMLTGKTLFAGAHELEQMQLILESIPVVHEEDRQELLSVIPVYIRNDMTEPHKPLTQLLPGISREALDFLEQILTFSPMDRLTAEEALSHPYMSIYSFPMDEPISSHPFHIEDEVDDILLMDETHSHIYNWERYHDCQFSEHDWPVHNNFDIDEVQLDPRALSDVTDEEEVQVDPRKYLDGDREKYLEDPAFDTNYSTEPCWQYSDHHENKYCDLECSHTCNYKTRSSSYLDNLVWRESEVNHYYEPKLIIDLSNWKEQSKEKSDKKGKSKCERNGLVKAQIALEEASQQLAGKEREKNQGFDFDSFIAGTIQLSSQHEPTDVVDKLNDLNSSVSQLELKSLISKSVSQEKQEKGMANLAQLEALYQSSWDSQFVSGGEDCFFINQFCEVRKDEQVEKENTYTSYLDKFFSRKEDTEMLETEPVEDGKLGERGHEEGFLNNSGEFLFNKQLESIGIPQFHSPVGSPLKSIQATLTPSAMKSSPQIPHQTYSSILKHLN
UniProt P51817, sequence (whole entry, looked up): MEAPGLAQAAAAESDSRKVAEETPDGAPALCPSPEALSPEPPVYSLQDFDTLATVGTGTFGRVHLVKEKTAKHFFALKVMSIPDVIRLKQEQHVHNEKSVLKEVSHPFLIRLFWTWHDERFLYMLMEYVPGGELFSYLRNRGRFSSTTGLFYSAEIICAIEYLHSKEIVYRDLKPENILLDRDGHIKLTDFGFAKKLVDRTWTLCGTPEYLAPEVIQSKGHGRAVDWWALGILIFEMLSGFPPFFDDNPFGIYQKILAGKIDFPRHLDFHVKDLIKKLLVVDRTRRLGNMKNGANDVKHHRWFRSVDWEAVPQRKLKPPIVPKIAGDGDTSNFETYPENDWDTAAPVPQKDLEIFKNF

Series 1 — method: competition with immobilised ligand; tested at: 1 µM
Compound: Cc1nc(N2CC[C@@H](O)C2)ncc1-c1cc(C(F)(F)F)cc2[nH]ncc12
target | read-out | remaining binding
Ephrin type-B receptor 2 (EPHB2, Homo sapiens, UniProt P29323) | cell-free assay | 100%
Ephrin type-A receptor 1 (EPHA1, Homo sapiens, UniProt P21709) | cell-free assay | 85%
Serine/threonine-protein kinase Nek11 (NEK11, Homo sapiens, UniProt Q8NG66) | binding | 87%
Vascular endothelial growth factor receptor 2 (KDR, Homo sapiens, UniProt P35968) | cell-free assay | 53%
Tyrosine-protein kinase JAK1, JH2 (JAK1, Homo sapiens, UniProt P23458) | binding | 100%
Serine/threonine-protein kinase RIO1 (RIOK1, Homo sapiens, UniProt Q9BRS2) | binding | 100%
Mast/stem cell growth factor receptor Kit (KIT, Homo sapiens, UniProt P10721, D816H) | cell-free assay | 53%
cGMP-dependent protein kinase 1 (PRKG1, Homo sapiens, UniProt Q13976) | binding | 77%
Leukocyte tyrosine kinase receptor (LTK, Homo sapiens, UniProt P29376) | cell-free assay | 87%
Dual specificity protein kinase CLK2 (CLK2, Homo sapiens, UniProt P49760) | binding | 100%
Serine/threonine-protein kinase LATS2 (LATS2, Homo sapiens, UniProt Q9NRM7) | binding | 26%
Serine/threonine-protein kinase PAK 1 (PAK1, Homo sapiens, UniProt Q13153) | cell-free assay | 100%
Myosin-IIIa (MYO3A, Homo sapiens, UniProt Q8NEV4) | binding | 100%
Platelet-derived growth factor receptor beta (PDGFRB, Homo sapiens, UniProt P09619) | cell-free assay | 58%
Macrophage colony-stimulating factor 1 receptor, autoinhibited (CSF1R, Homo sapiens, UniProt P07333) | cell-free assay | 82%
cAMP-dependent protein kinase catalytic subunit PRKX (PRKX, Homo sapiens, UniProt P51817) | cell-free assay | 97%
Serine/threonine-protein kinase STK11 (STK11, Homo sapiens, UniProt Q15831) | binding | 100%
Calcium/calmodulin-dependent protein kinase type II subunit gamma (CAMK2G, Homo sapiens, UniProt Q13555) | binding | 100%
Serine/threonine-protein kinase TAO3 (TAOK3, Homo sapiens, UniProt Q9H2K8) | binding | 82%
Mitogen-activated protein kinase 6 (MAPK6, Homo sapiens, UniProt Q16659) | binding | 83%

Series 2 — method: RNA Bind-n-Seq; molecule type: RNA; matrix: in vitro; tested at: not given; setting: RNA with constant flanks, ends assumed; reference: input RNA pool; direction: higher = stronger binding
Target: RING finger protein unkempt homolog, zinc fingers 1-6, GST-SBP tag (UNK, Homo sapiens, UniProt Q9C0B0, residues 30-357)
UniProt Q9C0B0, sequence (30-357, looked up): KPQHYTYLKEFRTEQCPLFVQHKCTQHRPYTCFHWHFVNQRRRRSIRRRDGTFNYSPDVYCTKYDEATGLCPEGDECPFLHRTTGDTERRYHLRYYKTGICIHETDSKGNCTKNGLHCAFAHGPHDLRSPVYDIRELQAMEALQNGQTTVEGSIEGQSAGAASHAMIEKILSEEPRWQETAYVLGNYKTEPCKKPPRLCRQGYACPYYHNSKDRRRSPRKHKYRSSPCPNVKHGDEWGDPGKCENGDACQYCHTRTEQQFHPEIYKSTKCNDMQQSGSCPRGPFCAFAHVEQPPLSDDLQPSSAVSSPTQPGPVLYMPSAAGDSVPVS
Sequence | bound/input enrichment [ratio]
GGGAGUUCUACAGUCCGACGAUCGAUGACAUCCACCGCUCCCUCAUGGUUGACCAUGUGACUGAGGUCAGUCAGUGGAUGGCCGGAGUUAAAAGAUUAAUUGCAGAAAAGAGGAGUCUGUUUUCAGAGGAGGCAGCCAAUGAACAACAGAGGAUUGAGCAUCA | 0.322
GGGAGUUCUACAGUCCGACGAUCCAUAGAGAAAUAAUUUCAUCCCCCAACUGUAGUAAUUGUUACAAUUUUAUAUAAAAAAUUAACCGUAUAUGCAGAAAAUGACCUGAAUUCCAUCCGCAACAAGGACACAUGGCUUUACAUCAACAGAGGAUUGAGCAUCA | 17.6
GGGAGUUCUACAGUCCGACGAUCGUGCUGAGUUACACCAGAAUGUAAAUGUGAAGAACAUAAUCAUUGCUUUAAUUGACCGAUCCGCUUUAUUUGCUCACCGUGAAGAUGGACCUGGAAUCCCAGCGGAUAUUAAACUUUUUGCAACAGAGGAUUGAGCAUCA | 0.248
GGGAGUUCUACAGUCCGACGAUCAUGGGCAGAAAGGCACAGGUUGUGCUGUGCUUUAGCCUGCAUUUGUCUAUCCAAACUUGCCCGUUUUAUCGGCUUUUUACUUUUUUGUACUUUAUUUUUCCUAUAAAGUCCUUUUCAGAACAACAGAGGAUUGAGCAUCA | 0.207
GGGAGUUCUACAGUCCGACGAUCAGACGACGAGAAUAUCAAUUAUCUGACUCUACCAAAUACUAUCUUAAUGACUUGGACCGCGCCGCUGACCCUGCCUACCUGCCUACGCAACAAGAUGUGCUUAGAGUUCGAGUCCCCACCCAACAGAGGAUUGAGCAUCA | 0.305
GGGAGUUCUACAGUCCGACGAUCUUAAACAGUUGAACUGUGUAAAUGUUUCUUGAUCUCUAAGGUAUUAUGUUUGCCUUCUCUCCGUUAUUUCUGGGUUGUCACAAAGCUCAGUAUCAUGGUUUGACAGAAGCAGUUAUGUGACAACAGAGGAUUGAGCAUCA | 0.172
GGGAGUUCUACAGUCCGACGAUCGAAUGCGGGUGAUCGGCAUGGCUCGCCUGGUGCUCGGUCUGGUGAGCUGCACCUUCUUUCCCGCAGUCAGCGGUCUGUAUUCUUCUAGUGAUGAUGUCAUCGAGUUGACGCCAUCAAAUUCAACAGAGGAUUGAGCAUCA | 0.102
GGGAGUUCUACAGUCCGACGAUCGGAAGAUAAGAUUUCUGUCUACUAAGUGAUGCUGUGAUACCUUAGGCACUAAAGCAGAGCCCGUAAUGCUUUUUGAGUUUCAUGUUGGUUUAUUUUCACAGAUUGGGGUAACGUGCACUGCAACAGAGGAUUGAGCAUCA | 0.272

Series 3 — Variant: G71K; method: DHFR PCA, deep sequencing; matrix: yeast; reference: wild-type fitted maximum; direction: higher = stronger binding
Target: ABI1, truncated, D143A, DHFR fusion (Arabidopsis thaliana)
Setting: methotrexate growth selection, single substitutions
Parent: PYL1, truncated, DHFR fusion (Arabidopsis thaliana); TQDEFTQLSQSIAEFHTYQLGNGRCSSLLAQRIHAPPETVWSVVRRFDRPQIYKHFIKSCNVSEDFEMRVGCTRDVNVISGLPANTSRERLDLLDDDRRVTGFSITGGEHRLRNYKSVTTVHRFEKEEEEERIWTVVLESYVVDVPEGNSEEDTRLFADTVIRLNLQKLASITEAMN
with | relative binding score
(+)-ABA 58 µM | 14.4%
(+)-ABA 4.8 µM | -3.25%
(+)-ABA 1.4 µM | -10.9%
(+)-ABA 0 µM | -1.79%
(+)-ABA 200 µM | 50.4%
(+)-ABA 0.032 µM | 0.249%

Series 4 — method: RNA Bind-n-Seq; molecule type: RNA; matrix: in vitro; tested at: 365 nM; reference: no-protein control; direction: higher = stronger binding
Target: RNA binding protein fox-1 homolog 2, RRM domain, GST-SBP tag (RBFOX2, Homo sapiens, UniProt O43251-10, residues 100-194)
Setting: natural RNA segment, single round, ends assumed
Construct (chain): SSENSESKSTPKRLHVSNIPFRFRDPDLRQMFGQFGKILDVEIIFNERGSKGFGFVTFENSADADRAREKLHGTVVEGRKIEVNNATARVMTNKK
Sequence | RBNS enrichment (R)
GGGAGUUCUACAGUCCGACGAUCAAUUUCAUUUGCAUUUUCCACAUGAACUAGUUCCAAAUCUGAAGCCCAGGUUGGGCAUGACAUUACAACCCCAGCCCUACCUCAUCUGUGCAGAAAGACGCUGAAAGUGCUGGAAUUCUCGGGUGCCAA | 4.56
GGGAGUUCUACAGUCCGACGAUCAACGGUUUAACAGCAAGGGUACAAAGGCUGUAGUUUGAGGCCAGAGCAAUUAGCGCUUGUCAGCUUACCUUACAACACAGAGGGUCCAGCUGUUCACACAAGGGGGCAGGUGGAAUUCUCGGGUGCCAA | 0.316
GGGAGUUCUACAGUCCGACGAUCCAUUUAAAGCUGUUCAUCCAUGGUGCCUCCCCAAAUCAUAAGACCAAAGACCACCAAACGCAGGGUGGACUCUGCUCAUUAUUCUUUGACCCAGAAAGACUGGAGAAGGUUGGAAUUCUCGGGUGCCAA | 0.389
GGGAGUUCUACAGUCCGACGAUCGGACAGCAAUGUGAGCAGGCAGUUGAACAGGAAGAGGACAUUUUCUUUGUGGCUUUGGACCUGGACAGGAAGGUCCCACGGACCUUAUGUGAUGCGGGAGGCUCACAAACUGGAAUUCUCGGGUGCCAA | 0.629
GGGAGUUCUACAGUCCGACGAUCGAAUUGCAUUGCAUUGAGUUGUACCGGUAUUGCACAGCCCUGCGUGUGAGCCAGAUGUAACACUCCAAGCAGCUGUGAAAUGCAAUGUUCCUUUUGCAGGAGUGGCUGUAUGGAAUUCUCGGGUGCCAA | 2.03
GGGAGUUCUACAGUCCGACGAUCGGAGGACAGAAUUCUCCCAGCGUUAACACAAAAUCCAUGGGCAGUAUGAUGGCAGGUCCUCUGUUGCAAACUCAGUUCCAAAGUCACAGGAAGAAAGCAGAAAGUUCAACUGGAAUUCUCGGGUGCCAA | 0.381
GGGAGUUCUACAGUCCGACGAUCCAGCAAAGAAGAUAUAGGCAGUAAUAUCAACACUGCUAUAUCAUGUGUAGGACAUUUCUUAUCCAUUUUUUCUCUUUUACUUGCAUAGUUGCUAUGUGUUUCUCAUUGUAUGGAAUUCUCGGGUGCCAA | 0.912
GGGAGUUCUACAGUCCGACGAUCUCUAUAACAACUUAAUGUAUUAAGUUCUGACUGUGCUUCAUAUCAUGUACCUCUCUAGUGAAGUAGAUGCGCAAACAUUCAGUGACAGCAAAUCAGUGUUAGUGACAAGCUGGAAUUCUCGGGUGCCAA | 0.303

Further values, each from its own experiment
Structure (SMILES) | host | matrix | tested at | time | measurement | value
O=C(Nc1nccs1)c1cc2ccc3cccnc3c2[nH]1 | human | microsomes or S9 | 2 µM | 0.5 h | remaining compound | 23.4%

Excerpt of the above (series 4):
Sequence | RBNS enrichment (R)
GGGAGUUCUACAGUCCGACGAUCGGACAGCAAUGUGAGCAGGCAGUUGAACAGGAAGAGGACAUUUUCUUUGUGGCUUUGGACCUGGACAGGAAGGUCCCACGGACCUUAUGUGAUGCGGGAGGCUCACAAACUGGAAUUCUCGGGUGCCAA | 0.629
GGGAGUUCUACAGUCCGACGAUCGAAUUGCAUUGCAUUGAGUUGUACCGGUAUUGCACAGCCCUGCGUGUGAGCCAGAUGUAACACUCCAAGCAGCUGUGAAAUGCAAUGUUCCUUUUGCAGGAGUGGCUGUAUGGAAUUCUCGGGUGCCAA | 2.03
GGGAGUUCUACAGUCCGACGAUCGGAGGACAGAAUUCUCCCAGCGUUAACACAAAAUCCAUGGGCAGUAUGAUGGCAGGUCCUCUGUUGCAAACUCAGUUCCAAAGUCACAGGAAGAAAGCAGAAAGUUCAACUGGAAUUCUCGGGUGCCAA | 0.381
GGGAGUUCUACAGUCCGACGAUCCAGCAAAGAAGAUAUAGGCAGUAAUAUCAACACUGCUAUAUCAUGUGUAGGACAUUUCUUAUCCAUUUUUUCUCUUUUACUUGCAUAGUUGCUAUGUGUUUCUCAUUGUAUGGAAUUCUCGGGUGCCAA | 0.912
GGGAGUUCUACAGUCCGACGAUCUCUAUAACAACUUAAUGUAUUAAGUUCUGACUGUGCUUCAUAUCAUGUACCUCUCUAGUGAAGUAGAUGCGCAAACAUUCAGUGACAGCAAAUCAGUGUUAGUGACAAGCUGGAAUUCUCGGGUGCCAA | 0.303
